Experimental data of several laboratories.
Protocols differ between the studies behind these lines. ± marks the error that the study gave.
CNR2: Cannabinoid receptor 2 (CNR2, Homo sapiens, UniProt P34972)
Sequence of UniProt P34972 (whole entry, looked up): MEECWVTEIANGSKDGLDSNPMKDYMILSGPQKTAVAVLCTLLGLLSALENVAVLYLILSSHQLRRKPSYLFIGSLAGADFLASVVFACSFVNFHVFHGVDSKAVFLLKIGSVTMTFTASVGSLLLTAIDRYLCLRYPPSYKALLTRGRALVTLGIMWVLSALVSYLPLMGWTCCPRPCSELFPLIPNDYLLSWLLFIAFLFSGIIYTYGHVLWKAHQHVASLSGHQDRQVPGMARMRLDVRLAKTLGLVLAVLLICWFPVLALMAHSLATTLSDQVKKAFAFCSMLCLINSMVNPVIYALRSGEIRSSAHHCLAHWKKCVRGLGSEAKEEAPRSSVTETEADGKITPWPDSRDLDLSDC
HDAC11: Histone deacetylase 11 (HDAC11, Homo sapiens, UniProt Q96DB2)
Sequence of UniProt Q96DB2 (whole entry, looked up): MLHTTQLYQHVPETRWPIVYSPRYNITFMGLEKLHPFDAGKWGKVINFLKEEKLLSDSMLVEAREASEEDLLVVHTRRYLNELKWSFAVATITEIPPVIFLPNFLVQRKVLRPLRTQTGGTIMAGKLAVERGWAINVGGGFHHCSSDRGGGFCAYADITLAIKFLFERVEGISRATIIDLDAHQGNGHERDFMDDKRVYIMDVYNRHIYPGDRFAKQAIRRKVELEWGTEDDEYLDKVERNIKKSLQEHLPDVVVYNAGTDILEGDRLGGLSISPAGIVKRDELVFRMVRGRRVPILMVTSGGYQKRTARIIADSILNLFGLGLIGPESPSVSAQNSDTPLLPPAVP
Apeh: Acylamino-acid-releasing enzyme (Apeh, Mus musculus, UniProt Q8R146)
Sequence of UniProt Q8R146 (whole entry, looked up): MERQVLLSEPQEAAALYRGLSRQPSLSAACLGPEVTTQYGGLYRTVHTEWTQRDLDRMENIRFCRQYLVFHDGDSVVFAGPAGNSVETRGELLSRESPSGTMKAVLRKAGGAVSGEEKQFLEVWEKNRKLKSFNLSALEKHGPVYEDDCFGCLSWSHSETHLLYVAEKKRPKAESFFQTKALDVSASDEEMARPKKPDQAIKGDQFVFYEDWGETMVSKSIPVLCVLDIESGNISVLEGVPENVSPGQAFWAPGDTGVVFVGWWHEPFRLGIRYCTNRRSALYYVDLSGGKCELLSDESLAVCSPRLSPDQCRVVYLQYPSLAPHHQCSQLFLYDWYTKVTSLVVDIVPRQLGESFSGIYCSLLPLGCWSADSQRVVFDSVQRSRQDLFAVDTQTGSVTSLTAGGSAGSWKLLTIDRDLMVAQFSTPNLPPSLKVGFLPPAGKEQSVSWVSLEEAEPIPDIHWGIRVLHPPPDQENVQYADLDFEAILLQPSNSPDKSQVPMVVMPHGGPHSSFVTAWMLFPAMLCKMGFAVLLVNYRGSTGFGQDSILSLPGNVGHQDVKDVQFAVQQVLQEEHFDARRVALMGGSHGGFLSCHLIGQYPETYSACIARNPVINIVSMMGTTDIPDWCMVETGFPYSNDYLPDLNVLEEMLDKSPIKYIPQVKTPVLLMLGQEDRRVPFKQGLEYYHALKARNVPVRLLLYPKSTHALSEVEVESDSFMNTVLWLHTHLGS
Genome polyprotein NS2B-NS3 protease: Genome polyprotein, NS2B-NS3 protease (dengue virus type 2, UniProt P29990)
SIRT5: NAD-dependent protein deacylase sirtuin-5, mitochondrial (SIRT5, Homo sapiens, UniProt Q9NXA8)
Sequence of UniProt Q9NXA8 (whole entry, looked up): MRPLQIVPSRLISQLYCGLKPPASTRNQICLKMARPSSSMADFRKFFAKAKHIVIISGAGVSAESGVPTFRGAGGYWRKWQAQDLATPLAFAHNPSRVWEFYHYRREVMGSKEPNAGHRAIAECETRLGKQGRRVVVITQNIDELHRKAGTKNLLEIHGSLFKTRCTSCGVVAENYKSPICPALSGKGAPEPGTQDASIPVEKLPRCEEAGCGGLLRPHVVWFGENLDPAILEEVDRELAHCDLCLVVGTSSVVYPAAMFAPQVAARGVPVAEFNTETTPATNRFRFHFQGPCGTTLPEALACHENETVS
TNKS: Poly [ADP-ribose] polymerase tankyrase-1 (TNKS, Homo sapiens, UniProt O95271)
Sequence of UniProt O95271 (whole entry, looked up): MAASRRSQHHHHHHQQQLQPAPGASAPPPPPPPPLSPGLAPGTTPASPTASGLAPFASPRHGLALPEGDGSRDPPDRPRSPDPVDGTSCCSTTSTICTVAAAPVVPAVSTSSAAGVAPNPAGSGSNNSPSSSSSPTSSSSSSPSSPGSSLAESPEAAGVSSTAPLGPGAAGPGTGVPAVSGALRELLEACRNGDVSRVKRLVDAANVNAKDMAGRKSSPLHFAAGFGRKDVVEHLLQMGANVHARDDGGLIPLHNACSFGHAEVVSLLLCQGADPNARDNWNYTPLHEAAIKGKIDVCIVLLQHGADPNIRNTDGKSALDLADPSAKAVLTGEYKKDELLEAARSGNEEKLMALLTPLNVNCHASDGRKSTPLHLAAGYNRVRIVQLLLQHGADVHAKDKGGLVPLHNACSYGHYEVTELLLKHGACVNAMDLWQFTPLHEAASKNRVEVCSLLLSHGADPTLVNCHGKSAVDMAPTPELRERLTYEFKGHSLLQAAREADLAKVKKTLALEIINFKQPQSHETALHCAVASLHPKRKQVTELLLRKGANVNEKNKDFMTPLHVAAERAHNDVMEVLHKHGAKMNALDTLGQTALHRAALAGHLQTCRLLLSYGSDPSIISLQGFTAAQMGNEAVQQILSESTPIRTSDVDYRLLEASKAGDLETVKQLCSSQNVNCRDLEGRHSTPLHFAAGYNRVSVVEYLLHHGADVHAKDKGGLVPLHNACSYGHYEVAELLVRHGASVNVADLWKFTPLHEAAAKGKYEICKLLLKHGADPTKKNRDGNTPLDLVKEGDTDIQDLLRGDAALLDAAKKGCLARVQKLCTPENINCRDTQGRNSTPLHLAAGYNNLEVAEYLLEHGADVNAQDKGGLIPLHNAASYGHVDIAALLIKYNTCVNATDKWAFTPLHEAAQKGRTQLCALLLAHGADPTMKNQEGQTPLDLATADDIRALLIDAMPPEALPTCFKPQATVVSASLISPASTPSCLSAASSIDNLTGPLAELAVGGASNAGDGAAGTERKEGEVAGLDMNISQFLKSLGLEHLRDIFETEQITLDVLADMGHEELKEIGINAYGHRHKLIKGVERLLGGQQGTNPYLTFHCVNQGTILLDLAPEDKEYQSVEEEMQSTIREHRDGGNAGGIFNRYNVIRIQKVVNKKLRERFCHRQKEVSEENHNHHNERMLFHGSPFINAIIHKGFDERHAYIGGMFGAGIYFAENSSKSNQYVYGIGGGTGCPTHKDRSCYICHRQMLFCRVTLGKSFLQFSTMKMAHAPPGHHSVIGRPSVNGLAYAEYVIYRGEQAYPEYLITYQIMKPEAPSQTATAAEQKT
RIPK3: Receptor-interacting serine/threonine-protein kinase 3 (RIPK3, Homo sapiens, UniProt Q9Y572)
Sequence of UniProt Q9Y572 (whole entry, looked up): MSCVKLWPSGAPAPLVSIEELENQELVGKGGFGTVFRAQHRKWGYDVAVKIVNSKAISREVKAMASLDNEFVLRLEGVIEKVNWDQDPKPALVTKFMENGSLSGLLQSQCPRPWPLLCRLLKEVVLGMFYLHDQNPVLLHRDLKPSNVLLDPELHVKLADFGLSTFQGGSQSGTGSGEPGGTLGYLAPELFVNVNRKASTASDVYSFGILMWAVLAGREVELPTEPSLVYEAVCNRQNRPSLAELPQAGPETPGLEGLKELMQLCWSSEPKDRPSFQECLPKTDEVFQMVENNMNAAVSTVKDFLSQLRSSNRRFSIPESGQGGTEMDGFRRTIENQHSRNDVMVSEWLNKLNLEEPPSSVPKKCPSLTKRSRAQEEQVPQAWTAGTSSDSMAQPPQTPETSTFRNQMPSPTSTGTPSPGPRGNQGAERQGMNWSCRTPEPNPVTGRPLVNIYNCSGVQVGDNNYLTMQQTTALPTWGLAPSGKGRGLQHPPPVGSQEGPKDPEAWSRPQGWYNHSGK
PRMT9: Protein arginine N-methyltransferase 9 (PRMT9, Homo sapiens, UniProt Q6P2P2)
Sequence of UniProt Q6P2P2 (whole entry, looked up): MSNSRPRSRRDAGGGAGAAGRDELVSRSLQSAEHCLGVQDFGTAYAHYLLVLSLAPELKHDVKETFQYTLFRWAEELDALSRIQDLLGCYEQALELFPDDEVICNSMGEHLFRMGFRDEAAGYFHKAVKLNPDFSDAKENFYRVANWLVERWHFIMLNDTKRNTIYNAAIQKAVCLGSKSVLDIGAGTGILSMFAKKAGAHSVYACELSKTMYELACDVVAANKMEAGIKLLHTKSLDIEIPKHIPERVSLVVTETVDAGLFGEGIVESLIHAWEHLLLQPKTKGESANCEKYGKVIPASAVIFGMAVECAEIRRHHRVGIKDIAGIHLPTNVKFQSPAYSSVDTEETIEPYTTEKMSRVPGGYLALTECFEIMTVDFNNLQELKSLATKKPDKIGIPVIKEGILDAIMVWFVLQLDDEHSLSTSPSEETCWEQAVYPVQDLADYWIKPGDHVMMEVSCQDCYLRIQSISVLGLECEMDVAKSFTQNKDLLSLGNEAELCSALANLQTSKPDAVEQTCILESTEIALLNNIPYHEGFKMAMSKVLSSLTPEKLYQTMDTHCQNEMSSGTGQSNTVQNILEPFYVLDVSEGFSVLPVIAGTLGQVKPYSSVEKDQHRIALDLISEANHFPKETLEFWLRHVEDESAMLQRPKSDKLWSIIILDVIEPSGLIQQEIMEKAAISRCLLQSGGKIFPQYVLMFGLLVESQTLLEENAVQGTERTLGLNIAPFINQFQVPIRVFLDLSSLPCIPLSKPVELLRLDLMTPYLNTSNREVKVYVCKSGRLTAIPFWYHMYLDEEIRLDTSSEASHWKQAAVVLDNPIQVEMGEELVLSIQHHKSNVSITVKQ
Sequence of UniProt P32241 (whole entry, looked up): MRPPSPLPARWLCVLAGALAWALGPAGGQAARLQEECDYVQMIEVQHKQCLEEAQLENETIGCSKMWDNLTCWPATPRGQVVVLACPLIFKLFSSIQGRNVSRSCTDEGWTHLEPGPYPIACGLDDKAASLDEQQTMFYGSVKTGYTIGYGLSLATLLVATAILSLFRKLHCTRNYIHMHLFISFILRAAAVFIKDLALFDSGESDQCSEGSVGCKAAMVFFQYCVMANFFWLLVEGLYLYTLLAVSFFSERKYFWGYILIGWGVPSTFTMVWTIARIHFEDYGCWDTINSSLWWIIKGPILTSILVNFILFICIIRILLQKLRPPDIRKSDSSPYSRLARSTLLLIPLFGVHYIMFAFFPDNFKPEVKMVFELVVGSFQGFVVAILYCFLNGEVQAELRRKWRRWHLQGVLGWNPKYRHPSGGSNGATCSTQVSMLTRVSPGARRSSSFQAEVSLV

`C[Si]1(C[C@H](CN)CC(=O)O)CCCC1` has an inhibition of -10% (CNR2; ligand displacement, radioligand; 70 µM).
For `O=C1CO[C@H](CNC(=O)C2(c3ccc(Cl)cc3)CC2)CN1C1Cc2ccccc2C1`, the inhibition was 1% (CCR8 (Homo sapiens, UniProt P51685); β-arrestin recruitment, antagonist; 1 µM).
For `CC(C)(C)c1ccc(OS(=O)(=O)Oc2cncc(C(=O)NO)c2)cc1`, the inhibition was 39% (HDAC11; 10 µM).
The inhibition of `CCCCCCCCCCCCCCCC(=O)N[C@@H](CCCCN)C(=O)N[C@@H](CCCCN)C(=O)N[C@@H](CO)C(=O)N[C@@H](CCCNC(=N)N)C(=O)N[C@@H](C)C(=O)N[C@@H](CC(C)C)C(=O)N[C@@H](Cc1ccccc1)C(N)=O` is reported as 11% (F2RL3 (Homo sapiens, UniProt Q96RI0); platelet aggregation, ex vivo LTA; human; 0.5 mg/kg, 30 min, together with: AYPGKF 160 µM; relative to: baseline).
`O=C(N1CCOCC1)n1ccnn1` gave an inhibition of under 50% (Apeh; serine hydrolase activity, inhibitor, competitive gel-based ABPP; mouse T-cell proteome; 1 µM, 30 min, 37 °C).
For `NC(=O)c1cc(-c2ccc3c(c2)OCCO3)n(-c2ccccc2)n1`, the inhibition was 37% (Genome polyprotein NS2B-NS3 protease; reporter gene; HeLa; 12.5 µM).
`O=C(NC1CCC1)[C@H](Cc1c[nH]c2ccccc12)NC(=O)[C@H](CCCCNC(=S)NCc1cc(F)c(O)c(F)c1)NS(=O)(=O)c1cccc(F)c1` has an inhibition of under 0% (SIRT5; enzyme activity, inhibitor; 100 µM).
For `O=C(NCc1ccccn1)c1cc(-c2ccccc2)n(-c2ccccc2)n1`, the inhibition was 17% (Genome polyprotein NS2B-NS3 protease; enzyme activity, fluorogenic AMC substrate; 50 µM).
For `O=C(NCCCCc1ccccc1)n1c(=O)oc2cc(-c3ccc(F)cc3)ccc21`, the inhibition was -19.7% (phospholipase C; enzyme activity; 10 µM).
For `O=C(c1cc(-c2ccccc2)n(-c2ccccc2)n1)N1CCc2nc[nH]c2C1`, the inhibition was 37% (Genome polyprotein NS2B-NS3 protease; reporter gene; HeLa; 12.5 µM).
`COCC(=O)N1CCc2cc(-c3csc(NC(=O)c4cc(OC)cc(OC)c4)n3)ccc21` gave an inhibition of 5% (ADRA1D (Homo sapiens, UniProt P25100); cell-free assay; 10 µM).
For `Cn1sc(Nc2c(Cl)ccc3ncccc23)c(C#N)c1=O`, the inhibition was 100% (SARM1 (Homo sapiens, UniProt Q6SZW1); enzyme activity, inhibitor; 10 µM).
With `O=C(CCCc1ccc2c(c1)OCCO2)NCCNC(=O)Cn1c(=O)[nH]c(=O)c2ccccc21` the inhibition was 0% (TNKS; enzyme activity, inhibitor; 5 nM).
The inhibition of `CS(=O)(=O)Nc1cccc(-c2csc3cnc(Nc4ccc(N5CCN(CCCCCOc6cccc7c6C(=O)N(C6CCC(=O)NC6=O)C7=O)CC5)cc4)nc23)c1` (stereo not drawn) is reported as -14.5% (ATR (Homo sapiens, UniProt Q13535); probe labelling, inhibitor, KiNativ chemoproteomics; MOLT-4; 1 µM).
With `NC(=O)c1cccc(NC(=O)c2cc(-c3ccccc3)n(-c3ccccc3)n2)c1` the inhibition was 47% (Genome polyprotein NS2B-NS3 protease; enzyme activity, fluorogenic AMC substrate; 50 µM).
With `O=C1c2sc(-c3ccc(N4CCC(CO)CC4)nc3F)nc2CCN1c1cccnc1` the inhibition was -2% (NMDA receptor; radioligand binding; 1 µM, together with: antagonist radioligand).
The inhibition of `CC1Cc2ccccc2N1C(=O)CN1CCN(c2ccccc2)CC1` (stereo not drawn) is reported as -1% (DRD1 (Homo sapiens, UniProt P21728); radioligand binding; concentration not given, together with: [3H]SCH23390).
The inhibition of `C=CC(=O)Nc1cccc(-c2cnc3[nH]cc(C(=O)NC(C)(C)C)c3n2)c1` is reported as 2% (DYRK3 (Homo sapiens, UniProt O43781); enzyme activity, inhibitor; 0.1 µM).
For `C/C1=C\CC/C(C)=C/CC(C)(C)/C=C/C1`, the inhibition was 5 ± 5% (SCN9A (Homo sapiens, UniProt Q15858); ion current, inhibitor, whole-cell patch clamp; HEK293; 100 µM, 5 min).
`Cc1cccc(O[C@H]2CCC[C@@H](C(C)CNCc3ccncc3)C2)c1` (relative stereo) gave an inhibition of -3% (PRKCZ (Homo sapiens, UniProt Q05513); enzyme activity; 1 µM).
For `O=C(NO)c1cc(F)cc(OS(=O)(=O)Oc2ccc3ccccc3c2)c1`, the inhibition was 20% (HDAC11; 10 µM).
For `CC[C@H](C)[C@@H]1NC(=O)[C@H](Cc2ccccc2C(F)(F)F)NC(=O)CCSCc2cccc(n2)CSCCCNC(=O)[C@H](CCCCCC(=O)NO)NC1=O`, the inhibition was 30% (HDAC4 (Homo sapiens, UniProt P56524); enzyme activity, inhibitor, fluorogenic; 30 µM).
The inhibition of `Cc1cc(C(=O)NCCNC(=O)c2cccc(COc3ccccc3C(N)=O)c2)n[nH]1` is reported as 100% (TNKS; enzyme activity, inhibitor; 0.5 µM).
`CN1CCN(Cc2ccc(-c3ccc(CO[C@H]4CCC[C@@H]4NC(=O)c4cc(-c5cnn(C)c5)cnc4N)cc3)cc2)CC1` has an inhibition of -6% (RIPK3; enzyme activity, inhibitor; 0.1 µM).
The inhibition of `C/C=C/C(=O)Nc1ccc2nc(NCCCCCN(C)C)nc(NCCCCCCN(C)C)c2c1` is reported as 42% (PRMT9; enzyme activity, inhibitor, radiometric; 10 µM).
With `CC(=O)N[C@H](C(=O)N[C@@H](CO)C(=O)N[C@@H](Cc1ccccc1)C(=O)N[C@H]1CCCCNC(=N)NCCCC[C@@H](C(=O)N2CCC[C@H]2C(N)=O)NC(=O)[C@H](CC(C)C)NC(=O)[C@H](CC(C)C)NC(=O)[C@H](C)NC(=O)[C@H](Cc2c[nH]c3ccccc23)NC(=O)[C@H](Cc2ccc(O)cc2)NC(=O)[C@H](CCC(=O)O)NC1=O)[C@@H](C)O` the inhibition was 80% (MDM2 (Homo sapiens, UniProt Q00987); protein-protein interaction, inhibitor, TR-FRET; 0.1 µM).
With `NC(=O)c1cccc(NC(=O)c2cc(O)n(-c3ccccc3)n2)c1` the inhibition was 15% (Genome polyprotein NS2B-NS3 protease; enzyme activity, fluorogenic AMC substrate; 50 µM).
`O=C1c2sc(-c3ccc(N4CCC(F)C4)nc3F)nc2CCN1c1cccnc1` (stereo not drawn) has an inhibition of 1% (VIPR1 (Homo sapiens, UniProt P32241); ligand displacement, radioligand; 1 µM).
The inhibition of `CN1CCN(C(=O)n2ccnn2)CC1` is reported as under 50% (Apeh; serine hydrolase activity, inhibitor, competitive gel-based ABPP; mouse T-cell proteome; 1 µM, 30 min, 37 °C).
`CCCCCCCCCCCCCC(=S)NCCCC[C@H](NC(=O)OCc1ccccc1)C(=O)Nc1ccccc1` gave an inhibition of under 5% (SIRT5; enzyme activity, inhibitor; 100 µM).
`CC(=O)[C@]12NC(C)(C)C[C@@]1(C)C(=O)C1=C2c2c(c3c4n2C(C)(C)CC2=C4[C@@]4(CC(C)(C)N[C@@](C)(C4)C2=O)CC3(C)C)C(=O)C(C)(C)N1` (racemic) has an inhibition of 9.53% (TRPV4 (Homo sapiens, UniProt Q9HBA0); ion current, inhibitor, patch clamp; HEK-293T; 10 µM).
`O=C(NC(c1ccccn1)c1ccccn1)c1cc(-c2ccccc2)n(-c2ccccc2)n1` has an inhibition of 53% (Genome polyprotein NS2B-NS3 protease; reporter gene; HeLa; 12.5 µM).
`CN(C)C/C=C/C(=O)Nc1ccc2nc(NCCCCCN(C)C)nc(NCCCCCCN(C)C)c2c1` gave an inhibition of 81% (PRMT9; enzyme activity, inhibitor, radiometric; 50 µM).
With `CCn1cc(C(=O)O)c(=O)c2c(N)c(F)c(NC3CCCCC3)cc21` the inhibition was 25.2% (RIPK3; kinase activity; 0.1 µM, together with: ATP at Km).
With `Brc1ccccc1-c1nnc(CSc2nnnn2-c2ccccc2)o1` the inhibition was 15% (GABAA receptor; binding; 10 µM).
With `NC(=O)C[C@H]1CCc2sc3ncnc(O[C@H]4CC[C@H](N5CCOCC5)CC4)c3c21` the inhibition was 29% (RIPK3; enzyme activity, inhibitor; 10 µM).
`Cc1nc2c(F)cc(-c3nc(Nc4ccc(CNC(=O)CCCCCCC(=O)NO)cc4)ncc3F)cc2n1C(C)C` gave an inhibition of 40% (Mapk1 (Mus musculus, UniProt P63085); enzyme activity, inhibitor; 1 µM).
For `C[Si](C)(C)C[C@H](CN)CC(=O)O`, the inhibition was 2% (CNR2; ligand displacement, radioligand; 250 µM).
The inhibition of `N#Cc1cc(NC(=O)c2cc(-c3ccccc3)n(-c3ccccc3)n2)ccc1N1CCC2(CC1)CNC2` is reported as 75% (Genome polyprotein NS2B-NS3 protease; enzyme activity, fluorogenic AMC substrate; 50 µM).
`O=C(CC1CC2CCC1C2)NCCNC(=O)Cn1c(=O)[nH]c(=O)c2ccccc21` (stereo not drawn) gave an inhibition of 0% (TNKS; enzyme activity, inhibitor; 5 nM).
With `Cc1ccc(-n2nc(C(=O)Nc3cccc(C(N)=O)c3)cc2-c2ccc(CC(C)C)cc2)cc1` the inhibition was 56% (Genome polyprotein NS2B-NS3 protease; reporter gene; HeLa; 12.5 µM).
`CCCCCCCCCCCCNC(=S)NCCCC[C@H](NC(=O)OCc1ccccc1)C(=O)N[C@@H](Cc1c[nH]c2ccccc12)C(=O)NC(C)C` gave an inhibition of under 5% (SIRT5; enzyme activity, inhibitor; 100 µM).

For quick reference, copied from above:
`O=C(N1CCOCC1)n1ccnn1` gave an inhibition of under 50% (Apeh; serine hydrolase activity, inhibitor, competitive gel-based ABPP; mouse T-cell proteome; 1 µM, 30 min, 37 °C).
The inhibition of `C/C=C/C(=O)Nc1ccc2nc(NCCCCCN(C)C)nc(NCCCCCCN(C)C)c2c1` is reported as 42% (PRMT9; enzyme activity, inhibitor, radiometric; 10 µM).
The inhibition of `CS(=O)(=O)Nc1cccc(-c2csc3cnc(Nc4ccc(N5CCN(CCCCCOc6cccc7c6C(=O)N(C6CCC(=O)NC6=O)C7=O)CC5)cc4)nc23)c1` (stereo not drawn) is reported as -14.5% (ATR (Homo sapiens, UniProt Q13535); probe labelling, inhibitor, KiNativ chemoproteomics; MOLT-4; 1 µM).
`Cc1cccc(O[C@H]2CCC[C@@H](C(C)CNCc3ccncc3)C2)c1` (relative stereo) gave an inhibition of -3% (PRKCZ (Homo sapiens, UniProt Q05513); enzyme activity; 1 µM).
`O=C1c2sc(-c3ccc(N4CCC(F)C4)nc3F)nc2CCN1c1cccnc1` (stereo not drawn) has an inhibition of 1% (VIPR1 (Homo sapiens, UniProt P32241); ligand displacement, radioligand; 1 µM).
`Cc1nc2c(F)cc(-c3nc(Nc4ccc(CNC(=O)CCCCCCC(=O)NO)cc4)ncc3F)cc2n1C(C)C` gave an inhibition of 40% (Mapk1 (Mus musculus, UniProt P63085); enzyme activity, inhibitor; 1 µM).
